Published values gathered from unrelated publications.
Each numbered part is a random draw from the data of one study; scales do not carry over between parts.

Study 1 — method: protein-binding microarray; molecule type: double-stranded DNA, one strand shown; sample: in vitro; tested at: not given; reading: higher = stronger binding
Target: Protein C-ets-1 (ETS1, Homo sapiens, UniProt P14921, residues 1-441, K379A, full length assumed)
Notes: k-mer, scored over probes, only values ≥0.25
Construct (chain): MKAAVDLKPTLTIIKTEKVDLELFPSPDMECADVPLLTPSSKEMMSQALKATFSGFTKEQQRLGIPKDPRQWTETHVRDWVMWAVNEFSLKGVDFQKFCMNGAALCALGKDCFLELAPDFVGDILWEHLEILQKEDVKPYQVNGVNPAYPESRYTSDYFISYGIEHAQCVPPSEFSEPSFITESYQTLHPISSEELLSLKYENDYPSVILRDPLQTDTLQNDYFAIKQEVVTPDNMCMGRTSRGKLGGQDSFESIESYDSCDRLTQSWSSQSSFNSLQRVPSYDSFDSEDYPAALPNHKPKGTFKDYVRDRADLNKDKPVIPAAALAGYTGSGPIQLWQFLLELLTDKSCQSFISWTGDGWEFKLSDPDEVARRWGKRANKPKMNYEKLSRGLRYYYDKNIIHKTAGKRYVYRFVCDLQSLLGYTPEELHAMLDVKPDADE
| Sequence | E-score |
| --- | --- |
| ATTGTTAC | 0.279 |
| AAACCGGG | 0.327 |
| CCGGTTGA | 0.337 |
| CGTCCGGA | 0.289 |
| TGTGCTAA | 0.273 |

Study 2 — method: protein binding microarray; molecule type: double-stranded DNA, one strand shown; sample: in vitro; tested at: not given; relative to: not given; reading: higher = stronger binding
Target: Histone acetyltransferase KAT6A, both winged helices, GST fusion (KAT6A, Homo sapiens, UniProt Q92794, residues 1-181)
Notes: 8-mer, flanks averaged, mean of 2 arrays, mostly near background
Residues (chain): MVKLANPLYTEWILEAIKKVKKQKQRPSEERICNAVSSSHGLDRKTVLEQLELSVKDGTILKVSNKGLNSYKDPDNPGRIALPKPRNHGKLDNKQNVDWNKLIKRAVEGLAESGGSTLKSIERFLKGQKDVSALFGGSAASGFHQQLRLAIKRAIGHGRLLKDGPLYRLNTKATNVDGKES
| Sequence | E-score |
| --- | --- |
| GTAATGAC | 0.0141 |
| CGAACGCC | 0.209 |
| TACGCTGA | 0.251 |
| CTCAAACA | -0.0101 |
| GAGTCGTA | -0.134 |
| AAGGAGCC | -0.0972 |
| GATCTTAA | 0.0703 |
| AGAAGCCC | -0.0182 |

Study 3 — method: RNA Bind-n-Seq; molecule type: RNA; sample: in vitro; tested at: 20 nM; notes: 6-mer, flanks averaged, single round; added: 150 mM LiCl; relative to: input library; reading: higher = stronger binding
Target: TAR DNA-binding protein 43, full length, His tag (TARDBP, Homo sapiens, UniProt Q13148, residues 1-414)
| Sequence | 6-mer enrichment (R) |
| --- | --- |
| UUACAG | 0.867 |
| GAGGAU | 1.02 |
| ACUAAU | 0.911 |
| GAGACA | 0.912 |
| UGGUGU | 1.71 |
| CGUUAG | 0.888 |
| GUUGGC | 1.09 |
| GCCUGA | 0.922 |

Study 4 — cell line: HEK-293T; read-out: pseudovirus infection; method: FDA-approved drug library screen; organism: VSV pseudotyped with SARS-CoV-2 spike; tested at: 10 µM; time: 16 h; relative to: vehicle-treated
| SMILES | GFP-positive cells [%] |
| --- | --- |
| Oc1cc(Cl)ccc1Oc1ccc(Cl)cc1Cl | 86.2 |
| CN1C[C@H](C(=O)N[C@]2(C)O[C@@]3(O)[C@@H]4CCCN4C(=O)[C@H](Cc4ccccc4)N3C2=O)C[C@@H]2c3cccc4[nH]cc(c34)C[C@H]21 | 99 |
| Nc1ccc(S(=O)(=O)Nc2nccs2)cc1 | 126 |

Study 5 — read-out: enzyme activity; action: inhibitor; tested at: 20 µM; notes: hit confirmation, no DTT
Target: Replicase polyprotein 1ab, main protease (rep, Severe acute respiratory syndrome coronavirus 2, UniProt P0DTD1)
| SMILES | inhibition |
| --- | --- |
| C=CC(=O)c1ccc2ccccc2c1 | 92.3% |
| O=C(C=Cc1ccc(O)c2c1C(C(=O)OC(Cc1ccc(O)c(O)c1)C(=O)O)C(c1ccc(O)c(O)c1)O2)OC(Cc1ccc(O)c(O)c1)C(=O)O (stereo not drawn) | 88% |
| C=C1C(=O)O[C@H]2[C@H]1CC/C(C)=C/CC[C@@]1(C)O[C@@H]21 | 86.2% |
| Cc1cc(-c2ccc(/N=N/c3ccc4c(S(=O)(=O)O)cc(S(=O)(=O)O)c(N)c4c3O)c(C)c2)ccc1/N=N/c1ccc2c(S(=O)(=O)O)cc(S(=O)(=O)O)c(N)c2c1O | 102% |
| C[C@@H]1O[C@@H](Oc2c(-c3cc(O)c(O)c(O)c3)oc3cc(O)cc(O)c3c2=O)[C@@H](O)[C@H](O)[C@H]1O | 77.9% |

Study 6 — read-out: enzyme activity; action: inhibitor; tested at: 20 µM
Target: Replicase polyprotein 1ab, polymerase (rep, Severe acute respiratory syndrome coronavirus 2, UniProt P0DTD1)
| Structure (SMILES) | inhibition [%] |
| --- | --- |
| O=C(O)CCNc1cc(N2CCc3ccccc3CC2)nc(-c2ccccn2)n1 | 13.1 |
| Cc1cccc([C@H](C)c2c[nH]cn2)c1C | -6.89 |
| O=C(O)[C@H]1CN(C/C=C/P(=O)(O)O)CCN1 | -1.88 |
| CCCCCCCCCCCCCCCCCCCCCCO | -4.34 |
| COc1ccc2c(C(=S)N(C)CC(=O)O)cccc2c1C(F)(F)F | -1.33 |
| Cc1c[nH]c(=O)n(CCCN2CCN(c3ccccc3OCC(F)(F)F)CC2)c1=O | -4.8 |
| NC(=O)N/N=C/c1ccc(Oc2ccc(F)cc2)cc1 | -3.75 |
| O=C1C=CC(=O)C2=C1C1c3ccccc3C2c2ccccc21 | -5.44 |
| O=S(=O)(N[C@H](CO)C(C(F)(F)F)C(F)(F)F)c1ccc(Cl)s1 | -1.9 |
| N#Cc1ccnc(N2C(=O)CC[C@H]2C(=O)N(c2cncc(F)c2)[C@H](C(=O)NC2CC(F)(F)C2)c2ccccc2Cl)c1 | -6.16 |
| Nc1ncnc2c1C(=O)N(c1ccc([C@H]3CC[C@H](CC(=O)O)CC3)cc1)CCO2 | 0.91 |
| COc1cc(OCc2cccc(-c3ccccc3)c2C)cc(OC)c1CN1CCCC[C@H]1C(=O)O | 2.25 |
| Clc1ccc(C(Cn2ccnc2)OCc2csc3c(Cl)cccc23)c(Cl)c1 (stereo not drawn) | -2.49 |
| NC(Cc1ccc(Cl)cc1)C(=O)O (racemic) | -5.71 |
| CC(C)N(CC[C@H](c1ccccc1)c1cc(CO)ccc1O)C(C)C | -3.11 |
| CC[C@@H](CO)NC(=O)[C@@H]1C=C2c3cccc4[nH]cc(c34)C[C@H]2N(C)C1 | 2.03 |
| COc1cc(O)c(C(=O)c2ccccc2)cc1S(=O)(=O)O | -3.01 |
| C[C@H](NC(=O)c1sccc1OCc1ccc(Cl)cc1)c1ccccc1 | -1.74 |
| O=C(NC[C@H](O)CN1CCc2ccccc2C1)c1cc(NC2COC2)ncn1 | -5.33 |
| CO[C@H]1C[C@H](O[C@@H]2/C(C)=C/C[C@@H]3C[C@@H](C[C@]4(CC[C@H](C)[C@@H](C5CCCCC5)O4)O3)OC(=O)[C@@H]3C=C(C)/C(=N/O)[C@H]4OC/C(=C\C=C\[C@@H]2C)[C@]43O)O[C@@H](C)[C@@H]1O | -2.39 |
| CCOCCOc1ccccc1C(N)=O | -5.23 |
| CNC(=O)COC(=O)NCCC1CCN(c2cccc(C)n2)CC1 | -1.33 |
| Cc1n[nH]c(C)c1Cc1sc2c(c1C(=O)N1C[C@H](O)CO1)c(=O)n(C)c(=O)n2CC(C)C | -3.18 |
| CCNC(=O)C#Cc1ccc2c(C(=Nc3ccc(CN(C)C)cc3)c3ccccc3)c(O)[nH]c2c1 | -1.72 |
| CNC[C@H](O)[C@@H](O)[C@H](O)[C@H](O)CO | 1.24 |

A few entries again (study 6):
| Structure (SMILES) | inhibition [%] |
| --- | --- |
| O=C1C=CC(=O)C2=C1C1c3ccccc3C2c2ccccc21 | -5.44 |
| O=S(=O)(N[C@H](CO)C(C(F)(F)F)C(F)(F)F)c1ccc(Cl)s1 | -1.9 |
| COc1cc(OCc2cccc(-c3ccccc3)c2C)cc(OC)c1CN1CCCC[C@H]1C(=O)O | 2.25 |
| Nc1ncnc2c1C(=O)N(c1ccc([C@H]3CC[C@H](CC(=O)O)CC3)cc1)CCO2 | 0.91 |
| O=C(O)[C@H]1CN(C/C=C/P(=O)(O)O)CCN1 | -1.88 |
| COc1ccc2c(C(=S)N(C)CC(=O)O)cccc2c1C(F)(F)F | -1.33 |
| CNC[C@H](O)[C@@H](O)[C@H](O)[C@H](O)CO | 1.24 |
| CNC(=O)COC(=O)NCCC1CCN(c2cccc(C)n2)CC1 | -1.33 |
